Measurements pooled from the literature.
Parts stem from different laboratories: compare values within a part only.
Sequence of UniProt Q06418 (whole entry, looked up): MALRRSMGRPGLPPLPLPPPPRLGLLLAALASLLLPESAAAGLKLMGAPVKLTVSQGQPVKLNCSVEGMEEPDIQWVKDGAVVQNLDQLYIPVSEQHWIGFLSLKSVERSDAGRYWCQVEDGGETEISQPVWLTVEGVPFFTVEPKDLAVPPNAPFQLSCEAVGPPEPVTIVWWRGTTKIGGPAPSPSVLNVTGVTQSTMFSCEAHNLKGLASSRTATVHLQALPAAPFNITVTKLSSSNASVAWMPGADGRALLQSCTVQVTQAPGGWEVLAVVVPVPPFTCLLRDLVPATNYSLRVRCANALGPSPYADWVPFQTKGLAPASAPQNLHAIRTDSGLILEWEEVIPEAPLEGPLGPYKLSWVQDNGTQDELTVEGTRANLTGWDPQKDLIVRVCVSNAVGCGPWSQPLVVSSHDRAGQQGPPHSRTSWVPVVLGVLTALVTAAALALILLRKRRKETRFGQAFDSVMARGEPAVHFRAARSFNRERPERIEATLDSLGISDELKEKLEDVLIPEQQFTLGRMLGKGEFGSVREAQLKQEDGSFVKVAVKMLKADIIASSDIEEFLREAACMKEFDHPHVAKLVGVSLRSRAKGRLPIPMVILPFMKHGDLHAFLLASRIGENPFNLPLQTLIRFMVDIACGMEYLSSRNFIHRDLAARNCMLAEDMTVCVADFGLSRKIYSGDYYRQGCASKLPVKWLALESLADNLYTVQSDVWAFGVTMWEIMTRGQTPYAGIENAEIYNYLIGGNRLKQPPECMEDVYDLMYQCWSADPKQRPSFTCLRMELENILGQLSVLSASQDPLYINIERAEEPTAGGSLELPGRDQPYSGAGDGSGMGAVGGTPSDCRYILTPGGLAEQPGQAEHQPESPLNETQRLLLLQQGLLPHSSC
Sequence of UniProt Q96SB4 (whole entry, looked up): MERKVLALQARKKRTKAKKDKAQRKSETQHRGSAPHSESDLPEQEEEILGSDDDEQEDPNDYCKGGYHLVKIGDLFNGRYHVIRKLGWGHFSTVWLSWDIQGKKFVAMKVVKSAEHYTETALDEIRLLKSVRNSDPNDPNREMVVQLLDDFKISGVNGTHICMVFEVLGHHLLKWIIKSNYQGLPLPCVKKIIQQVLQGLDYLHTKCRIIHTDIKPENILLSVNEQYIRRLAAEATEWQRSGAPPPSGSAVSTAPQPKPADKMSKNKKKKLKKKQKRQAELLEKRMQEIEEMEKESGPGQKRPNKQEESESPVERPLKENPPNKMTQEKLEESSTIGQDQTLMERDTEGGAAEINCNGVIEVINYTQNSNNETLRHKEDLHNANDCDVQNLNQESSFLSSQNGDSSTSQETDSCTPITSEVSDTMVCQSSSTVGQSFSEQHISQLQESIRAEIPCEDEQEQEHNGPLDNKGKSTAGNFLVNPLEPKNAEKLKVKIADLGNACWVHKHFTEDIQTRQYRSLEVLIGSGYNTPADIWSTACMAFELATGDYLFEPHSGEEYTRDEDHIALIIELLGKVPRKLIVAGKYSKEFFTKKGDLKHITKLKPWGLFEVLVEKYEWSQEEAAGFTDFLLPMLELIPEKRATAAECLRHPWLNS
Sequence of UniProt Q14012 (whole entry, looked up): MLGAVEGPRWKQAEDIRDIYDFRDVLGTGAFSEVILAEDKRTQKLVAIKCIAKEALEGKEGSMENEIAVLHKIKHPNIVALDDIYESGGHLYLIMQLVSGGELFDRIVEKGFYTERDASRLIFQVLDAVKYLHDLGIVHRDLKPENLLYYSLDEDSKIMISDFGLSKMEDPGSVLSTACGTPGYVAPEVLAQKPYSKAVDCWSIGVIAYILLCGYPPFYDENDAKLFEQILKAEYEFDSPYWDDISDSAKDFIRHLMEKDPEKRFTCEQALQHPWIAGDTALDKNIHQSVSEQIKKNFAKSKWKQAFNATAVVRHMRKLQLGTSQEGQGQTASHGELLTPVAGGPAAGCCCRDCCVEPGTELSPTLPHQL
Sequence of UniProt Q13555 (whole entry, looked up): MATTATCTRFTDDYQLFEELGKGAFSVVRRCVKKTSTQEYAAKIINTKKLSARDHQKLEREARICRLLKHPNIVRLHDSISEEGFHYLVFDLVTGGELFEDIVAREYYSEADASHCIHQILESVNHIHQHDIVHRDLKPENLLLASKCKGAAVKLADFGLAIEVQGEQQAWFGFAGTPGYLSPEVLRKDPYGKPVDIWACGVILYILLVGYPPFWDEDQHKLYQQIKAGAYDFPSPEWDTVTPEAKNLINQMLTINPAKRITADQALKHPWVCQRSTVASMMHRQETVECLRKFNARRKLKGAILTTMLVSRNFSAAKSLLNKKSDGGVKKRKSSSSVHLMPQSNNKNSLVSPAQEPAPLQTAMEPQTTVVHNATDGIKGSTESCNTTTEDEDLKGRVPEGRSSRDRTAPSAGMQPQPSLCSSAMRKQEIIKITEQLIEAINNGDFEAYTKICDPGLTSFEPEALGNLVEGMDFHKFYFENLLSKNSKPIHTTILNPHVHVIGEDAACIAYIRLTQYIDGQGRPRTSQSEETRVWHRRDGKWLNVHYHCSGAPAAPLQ
Sequence of UniProt P23458 (whole entry, looked up): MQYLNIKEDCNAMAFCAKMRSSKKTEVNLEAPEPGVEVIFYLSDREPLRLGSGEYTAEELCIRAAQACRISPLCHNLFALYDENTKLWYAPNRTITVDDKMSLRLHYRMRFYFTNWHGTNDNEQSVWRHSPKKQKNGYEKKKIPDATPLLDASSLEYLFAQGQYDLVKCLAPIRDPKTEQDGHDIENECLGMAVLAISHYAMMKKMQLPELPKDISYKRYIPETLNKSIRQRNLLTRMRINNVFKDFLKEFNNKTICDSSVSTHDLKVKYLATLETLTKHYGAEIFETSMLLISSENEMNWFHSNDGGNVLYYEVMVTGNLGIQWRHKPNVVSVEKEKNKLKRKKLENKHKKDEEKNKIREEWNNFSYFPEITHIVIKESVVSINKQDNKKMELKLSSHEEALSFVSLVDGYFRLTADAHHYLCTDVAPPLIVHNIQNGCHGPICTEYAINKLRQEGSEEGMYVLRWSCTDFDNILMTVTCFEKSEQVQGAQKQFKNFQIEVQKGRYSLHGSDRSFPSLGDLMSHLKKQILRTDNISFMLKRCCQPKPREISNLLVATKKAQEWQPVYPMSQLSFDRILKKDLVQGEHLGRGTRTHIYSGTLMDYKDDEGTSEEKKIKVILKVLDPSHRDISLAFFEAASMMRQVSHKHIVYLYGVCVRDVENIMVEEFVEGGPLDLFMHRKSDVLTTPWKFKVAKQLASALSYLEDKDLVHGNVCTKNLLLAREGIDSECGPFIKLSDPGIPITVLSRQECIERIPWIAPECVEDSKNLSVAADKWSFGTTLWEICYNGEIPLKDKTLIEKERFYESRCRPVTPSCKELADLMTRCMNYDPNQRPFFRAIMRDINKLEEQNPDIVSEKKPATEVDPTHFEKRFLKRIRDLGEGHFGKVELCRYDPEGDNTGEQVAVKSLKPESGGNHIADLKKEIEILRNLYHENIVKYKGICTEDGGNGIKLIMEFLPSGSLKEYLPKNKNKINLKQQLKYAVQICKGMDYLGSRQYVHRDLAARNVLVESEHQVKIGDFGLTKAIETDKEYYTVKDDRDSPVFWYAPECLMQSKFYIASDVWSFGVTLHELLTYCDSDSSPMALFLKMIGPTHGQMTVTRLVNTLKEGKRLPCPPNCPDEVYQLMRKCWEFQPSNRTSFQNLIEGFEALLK
Sequence of UniProt Q9UF33 (whole entry, looked up): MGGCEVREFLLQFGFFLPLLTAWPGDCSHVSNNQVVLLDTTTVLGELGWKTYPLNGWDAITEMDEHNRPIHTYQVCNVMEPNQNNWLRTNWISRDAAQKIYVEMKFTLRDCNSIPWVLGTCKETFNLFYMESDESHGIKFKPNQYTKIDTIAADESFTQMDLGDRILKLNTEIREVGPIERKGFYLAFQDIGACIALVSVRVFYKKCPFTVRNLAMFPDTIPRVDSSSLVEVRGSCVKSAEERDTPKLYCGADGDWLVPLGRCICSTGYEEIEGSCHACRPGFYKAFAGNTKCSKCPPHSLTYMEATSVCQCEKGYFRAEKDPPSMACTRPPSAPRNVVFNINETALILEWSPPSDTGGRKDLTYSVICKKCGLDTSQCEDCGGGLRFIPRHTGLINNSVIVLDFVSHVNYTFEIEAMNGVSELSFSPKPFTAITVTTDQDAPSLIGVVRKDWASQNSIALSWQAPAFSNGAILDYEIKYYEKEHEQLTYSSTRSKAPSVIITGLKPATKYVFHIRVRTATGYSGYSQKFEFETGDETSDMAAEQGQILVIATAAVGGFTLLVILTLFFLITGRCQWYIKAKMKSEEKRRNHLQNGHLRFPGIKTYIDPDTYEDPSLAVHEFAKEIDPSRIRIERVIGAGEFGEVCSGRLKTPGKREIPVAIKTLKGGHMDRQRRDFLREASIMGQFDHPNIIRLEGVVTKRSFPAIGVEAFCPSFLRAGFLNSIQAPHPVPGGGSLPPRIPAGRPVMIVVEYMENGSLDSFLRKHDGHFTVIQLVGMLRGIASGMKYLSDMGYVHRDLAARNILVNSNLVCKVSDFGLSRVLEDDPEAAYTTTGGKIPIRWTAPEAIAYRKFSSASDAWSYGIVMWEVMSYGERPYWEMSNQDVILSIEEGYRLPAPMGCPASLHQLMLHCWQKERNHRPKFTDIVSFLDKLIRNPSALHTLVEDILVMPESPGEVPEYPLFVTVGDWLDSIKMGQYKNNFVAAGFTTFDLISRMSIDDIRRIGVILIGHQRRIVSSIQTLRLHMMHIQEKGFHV

Study 1
Target: TAR DNA-binding protein 43, full length, His tag (TARDBP, Homo sapiens, UniProt Q13148, residues 1-414)
Method: RNA Bind-n-Seq
Form: RNA
Matrix: in vitro
Concentration: 20 nM
Setting: 6-mer, flanks averaged, single round
With: 150 mM LiCl
Baseline: input library
Direction: higher = stronger binding
| Oligonucleotide | 6-mer enrichment (R) |
| --- | --- |
| AUCUUG | 0.916 |
| ACGCGU | 0.93 |
| GGACAC | 0.98 |
| GGAGCG | 1.17 |
| AGUGUA | 1.21 |
| GAUUGG | 1.08 |
| AUCGGA | 0.897 |
| GAACGG | 0.977 |

Study 2
Target: Eukaryotic initiation factor 4A-I (EIF4A1, Homo sapiens, UniProt P60842, residues 1-406, full length assumed)
Sequence of UniProt P60842 (whole entry, looked up): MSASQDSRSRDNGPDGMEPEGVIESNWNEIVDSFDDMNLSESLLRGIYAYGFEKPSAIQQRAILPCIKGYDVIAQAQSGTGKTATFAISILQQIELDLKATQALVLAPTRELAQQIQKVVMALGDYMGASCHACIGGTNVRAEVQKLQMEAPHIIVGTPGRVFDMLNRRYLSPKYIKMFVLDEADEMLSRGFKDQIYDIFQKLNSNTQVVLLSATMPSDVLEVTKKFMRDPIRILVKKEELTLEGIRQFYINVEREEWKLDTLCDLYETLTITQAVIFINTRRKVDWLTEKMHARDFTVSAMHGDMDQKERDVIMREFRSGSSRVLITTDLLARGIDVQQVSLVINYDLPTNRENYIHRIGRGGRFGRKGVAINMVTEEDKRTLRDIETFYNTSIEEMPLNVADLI
Method: RNA Bind-n-Seq
Form: RNA
Matrix: in vitro
Concentration: 15 pmol
Setting: 4-mer, random 30-nt RNA, single round
With: DMSO vehicle, 2 mM AMP-PNP
Baseline: input library
Direction: higher = stronger binding
| Oligonucleotide | 4-mer enrichment |
| --- | --- |
| AAUC | 0.911 fold |
| GUAG | 0.649 fold |
| CUGA | 1.61 fold |
| AUAC | 1.01 fold |
| GUCU | 0.944 fold |
| GUAC | 0.615 fold |
| GUAU | 0.721 fold |
| UGUG | 0.763 fold |

Study 3
SMILES: c1ccc(-c2[nH]ncc2-c2ccnc3ccccc23)nc1
Read-out: enzyme activity
Mode: inhibitor
Concentration: 0.5 µM
Baseline: control
| target | remaining activity [%] |
| --- | --- |
| Tyrosine-protein kinase receptor TYRO3 (TYRO3, Homo sapiens, UniProt Q06418) | 124 |
| Casein kinase I isoform delta (CSNK1D, Homo sapiens, UniProt P48730) | 44.2 |
| Ephrin type-A receptor 6 (EPHA6, Homo sapiens, UniProt Q9UF33) | 98.8 |
| Calcium/calmodulin-dependent protein kinase type 1 (CAMK1, Homo sapiens, UniProt Q14012) | 96.1 |
| Calcium/calmodulin-dependent protein kinase kinase 1 (CAMKK1, Homo sapiens, UniProt Q8N5S9) | 109 |
| SRSF protein kinase 1 (SRPK1, Homo sapiens, UniProt Q96SB4) | 98.4 |
| Tyrosine-protein kinase JAK1 (JAK1, Homo sapiens, UniProt P23458) | 96.7 |
| Insulin-like growth factor 1 receptor (IGF1R, Homo sapiens, UniProt P08069) | 102 |

Single results of other studies
| SMILES | target | assay | conditions | measurement | value |
| --- | --- | --- | --- | --- | --- |
| C[C@@]1(Cc2ccc(C#N)cc2)C(=O)N(c2cc(Cl)cc(Cl)c2)c2ncc(C(=O)NC3(c4nc(C5CCC5)no4)CC3)n21 | Calcium/calmodulin-dependent protein kinase type II subunit gamma (CAMK2G, Homo sapiens, UniProt Q13555) | cell-free assay, competition with immobilised ligand | 1 µM | remaining binding | 100% |
